Published values pooled from the literature.
Parts stem from different laboratories: compare values within a part only. Positions count from the first letter of the parent shown.

Study 1
Target: ABI1, truncated, D143A, DHFR fusion (Arabidopsis thaliana)
Technique: DHFR PCA, deep sequencing
Matrix: yeast
Notes: methotrexate growth selection, single substitutions
Together with: (+)-ABA 0.11 µM
Baseline: wild-type fitted maximum
Reading: higher = stronger binding
Starting sequence: PYL1, truncated, DHFR fusion (Arabidopsis thaliana); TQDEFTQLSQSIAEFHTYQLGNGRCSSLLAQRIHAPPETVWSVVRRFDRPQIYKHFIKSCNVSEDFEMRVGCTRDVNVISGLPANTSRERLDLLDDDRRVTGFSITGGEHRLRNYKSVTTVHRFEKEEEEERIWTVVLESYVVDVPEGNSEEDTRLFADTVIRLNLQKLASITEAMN; partner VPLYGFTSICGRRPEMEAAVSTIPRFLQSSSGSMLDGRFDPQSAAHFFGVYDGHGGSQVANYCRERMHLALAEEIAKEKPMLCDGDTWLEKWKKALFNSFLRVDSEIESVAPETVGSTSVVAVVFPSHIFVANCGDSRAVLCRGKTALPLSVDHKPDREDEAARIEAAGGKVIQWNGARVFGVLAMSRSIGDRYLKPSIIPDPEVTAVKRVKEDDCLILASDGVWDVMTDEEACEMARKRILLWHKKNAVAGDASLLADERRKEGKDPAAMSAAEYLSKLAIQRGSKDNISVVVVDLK
Change | relative binding score [%]
D3N | 24.4
R163D | 0.662
E109D | 87.9
E109K | 1.88
T154D | -8.93
I52P | 2.08
F124M | 60.6
S104W | -12.2
D92Y | 6.64
D144K | -6.64
Y53H | 6.83
R45D | -2.69
G81F | -5.26
E89V | -0.222
P146C | 14.7
V118M | 4.23
R45V | -1.83
V100W | -5.72
R90Q | 5.64
V121T | -3.3
M176L | 23.3
Y141P | 4.12
N77V | 61.4

Study 2
Target: UBE2J1 UBC core domain (UniProt Q9Y385)
Technique: yeast two-hybrid
Matrix: yeast
Notes: mostly zero background
Baseline: not given
Reading: higher = stronger interaction
B1: PHF21A RING domain (UniProt Q96BD5); chain SPTSTDGDIHEDFCSVCRKSGQLLMCDTCSRVYHLDCLDPPLKTIPKGMWICPRCQDQMLKKEEAIPW
B2: MID1 RING domain (UniProt O15344); chain METLESELTCPICLELFEDPLLLPCAHSLCFNCAHRILVSHCATNESVESITAFQCPTCRHVITLSQRGL
B3: ZNF598 RING domain (UniProt Q86UK7); chain AAAPERGGGSCVLCCGDLEATALGRCDHPVCYRCSTKMRVLCEQRYCAVCREELRQVVFGK
B4: RNF25 RING domain (UniProt Q96BH1); chain LTDNNIPHGQCVICLYGFQEKEAFTKTPCYHYFHCHCLARYIQHMEQELKAQGQEQEQERQHATTKQKAVGVQCPVCREPLVYDLASL
B5: TRIM69 RING domain (UniProt Q86WT6); chain VIQDITMELHCPLCNDWFRDPLMLSCGHNFCEACIQDFWRLQAKETFCPECKMLCQYNNCTF
B6: IRF2BPL RING domain (UniProt Q9H1B7); chain SPMANSGPLCCTICHERLEDTHFVQCPSVPSHKFCFPCSRESIKAQGATGEVYCPSGEKCPLVGSNVP
B7: RC3H2 RING domain (UniProt Q9HBD1); chain QAAQWTEFLSCPICYNEFDENVHKPISLGCSHTVCKTCLNKLHRKACPFDQTAINTDIDVL
B8: TRIM72 RING domain (UniProt Q6ZMU5); chain APGLLHQELSCPLCLQLFDAPVTAECGHSFCRACLGRVAGEPAADGTVLCPCCQAPTRPQALST
B9: TRIM8 RING domain (UniProt Q9BZR9); chain WKNCFEEELICPICLHVFVEPVQLPCKHNFCRGCIGEAWAKDSGLVRCPECNQAYNQKPGLE
Construct (chain): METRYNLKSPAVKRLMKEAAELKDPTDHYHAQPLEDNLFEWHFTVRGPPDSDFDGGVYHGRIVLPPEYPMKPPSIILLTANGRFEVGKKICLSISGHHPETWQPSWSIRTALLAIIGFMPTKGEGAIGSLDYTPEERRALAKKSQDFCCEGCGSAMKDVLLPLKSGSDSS
Sequence | lacZ reporter activity
FPEHFVKSISCQICEHILADPVETNCKHVFCRVCILRCLKVMGSYCPSCRYPCFPTDLES (RAG1 RING domain (UniProt P15918)) | 0
QLRRLQEERTCKVCMDKEVSIVFIPCGHLVVCKDCAPSLRKCPICRSTIKGTVRTF (BIRC3 RING domain (UniProt Q13489)) | 0
B1 (PHF21A RING domain) | 0
B2 (MID1 RING domain) | 0
EDEVSDNSAECVVCLSDVRDTLILPCRHLCLCNTCADTLRYQANNCPICRLPFRALLQIR (RNF157 RING domain (UniProt Q96PX1)) | 0
B3 (ZNF598 RING domain) | 0
KTLSRFGIQPCSICLGDAKDPVCLPCDHVHCLRCLRAWFASEQMICPYCLTALPDEFSPA (RNF213 RING domain (UniProt Q63HN8)) | 0
B4 (RNF25 RING domain) | 0
B5 (TRIM69 RING domain) | 0
QLQDIKEQTMCPVCLDRLKNMIFLCGHGTCQLCGDRMSECPICRKAIERRILLY (MIB1 RING domain (UniProt Q86YT6)) | 0
FASPPDSNFVCSVCHGVLKRPARLPCSHIFCKKCILRWLARQKTCPCCRKEVKRKKVVH (RNF151 RING domain (UniProt Q2KHN1)) | 0
VTLSLTLPITCHICLGKVRQPVICINNHVFCSICIDLWLKNNSQCPACRVPITPENPCK (OBI1 RING domain (UniProt Q5W0B1)) | 0
B6 (IRF2BPL RING domain) | 0
B7 (RC3H2 RING domain) | 0
B8 (TRIM72 RING domain) | 0
B9 (TRIM8 RING domain) | 0
DDENSDNSNECVVCLSDLRDTLILPCRHLCLCTSCADTLRYQANNCPICRLPFRALLQIR (MGRN1 RING domain (UniProt O60291)) | 0

Study 3
Target: CCNF, cyclin fold, Cln2 fusion (human)
Technique: yeast growth competition, sequencing
Matrix: yeast
Notes: strong parent motif
Baseline: not given
Reading: higher = stronger binding
Starting sequence: SCAPER docking peptide (human); SNARRSLNFGGST; partner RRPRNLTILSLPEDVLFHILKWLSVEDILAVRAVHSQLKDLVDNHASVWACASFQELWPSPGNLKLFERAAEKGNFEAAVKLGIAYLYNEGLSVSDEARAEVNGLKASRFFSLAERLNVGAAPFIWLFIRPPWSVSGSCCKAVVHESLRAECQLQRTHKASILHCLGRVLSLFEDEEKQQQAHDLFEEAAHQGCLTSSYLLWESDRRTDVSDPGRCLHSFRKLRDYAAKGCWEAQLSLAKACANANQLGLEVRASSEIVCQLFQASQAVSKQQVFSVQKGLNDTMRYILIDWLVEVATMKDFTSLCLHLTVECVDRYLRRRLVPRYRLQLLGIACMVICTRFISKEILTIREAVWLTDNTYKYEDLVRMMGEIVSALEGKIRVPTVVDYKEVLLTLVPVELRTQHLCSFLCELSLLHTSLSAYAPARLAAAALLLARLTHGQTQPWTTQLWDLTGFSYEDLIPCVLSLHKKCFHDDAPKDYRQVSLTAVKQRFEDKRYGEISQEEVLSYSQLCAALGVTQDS
Change | normalised enrichment score
SNARRSLNFGGRT [S12R] | 5.77
SNARRSLNQGGST [F9Q] | 0.92
SNARRSLNLGGST [F9L] | 4.44
SNARRSLNFYGST [G10Y] | 7.32
SLARRSLNFGGST [N2L] | 5.9
SNARRSLNNGGST [F9N] | 0.393
CNARRSLNFGGST [S1C] | 8.4
SNARRSLNFTGST [G10T] | 6.69
SNARRILNFGGST [S6I] | 6.58
SNTRRSLNFGGST [A3T] | 7.29
SNARRSLNFGGIT [S12I] | 7.61
SNARRSLRFGGST [N8R] | 7.03
SNAHRSLNFGGST [R4H] | 2.92
SNARRQLNFGGST [S6Q] | 7.75
INARRSLNFGGST [S1I] | 8.99
SEARRSLNFGGST [N2E] | 5.57
SNARRSLNFGGQT [S12Q] | 7.65
SNALRSLNFGGST [R4L] | 1.41
SNARRSLNFIGST [G10I] | 5.4
SNARRSLNFGGSK [T13K] | 7.67
YNARRSLNFGGST [S1Y] | 8.39
SNARRSLNFGGSA [T13A] | 7.35
SNARRSYNFGGST [L7Y] | 0.939
SNWRRSLNFGGST [A3W] | 3.05
SNARRSLNFGGWT [S12W] | 7.67

Study 4
Target: Histone acetyltransferase KAT6A, winged helix 1, GST fusion (KAT6A, Homo sapiens, UniProt Q92794, residues 1-85)
Technique: protein binding microarray
Form: double-stranded DNA, one strand shown
Matrix: in vitro
Tested at: not given
Notes: 8-mer, flanks averaged, mean of 2 arrays, mostly near background
Baseline: not given
Reading: higher = stronger binding
Target sequence (chain): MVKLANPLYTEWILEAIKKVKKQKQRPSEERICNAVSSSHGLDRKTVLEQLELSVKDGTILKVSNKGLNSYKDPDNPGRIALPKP
Oligonucleotide | E-score
CCTAAGGA | -0.157
ACATTAGT | -0.117
CCAGGGAC | -0.14
GAGTTTCA | -0.156
AGGAGGCA | -0.103
CTTCTTTA | 0.0513
CGTCACAA | 0.0452
GGTGGGTA | -0.05
AACATGTA | -0.106
CCGGGCTC | 0.202
ATAATCGA | -0.134
TATGTTAA | -0.161
ATGGTTGC | -0.0239
GCATATTA | 0.0506
AATACGTG | -0.112
ATGTTATA | 0.00219
GGCCGTAC | 0.382
CGCGTGGA | 0.253
ACATGGCT | -0.112

Study 5
Target: Prothrombin, mature alpha-thrombin (F2, Homo sapiens, UniProt P00734)
Technique: aptamer microarray, sandwich
Form: DNA with 2'F-ANA
Matrix: in vitro
Tested at: 200 nM
Notes: whole 15-mer aptamer, many near background
Together with: Cy3 exosite-II aptamer, 400 nM
Reading: higher = stronger binding
Oligonucleotide: GGTTGGTGTGGTTGG
Modification | mean fluorescence intensity
2'F-ANA at 1 4 5 7 9 10 11 14 | 47.1 a.u.
2'F-ANA at 7 8 9 10 11 14 15 | 122 a.u.
2'F-ANA at 1 2 3 4 5 6 10 11 15 | 51.1 a.u.
2'F-ANA at 1 2 4 7 10 11 13 15 | 66.8 a.u.
2'F-ANA at 1 2 3 4 5 10 13 14 15 | 43.8 a.u.
2'F-ANA at 2 3 4 6 8 10 11 12 13 14 | 136 a.u.
2'F-ANA at 2 3 4 7 10 11 12 13 14 | 173 a.u.
2'F-ANA at 1 2 4 6 7 9 10 11 | 50.4 a.u.
2'F-ANA at 4 5 7 8 9 10 11 12 13 14 15 | 59.3 a.u.
2'F-ANA at 3 4 7 8 11 12 13 15 | 831 a.u.
2'F-ANA at 1 2 3 5 8 9 10 15 | 47.1 a.u.
2'F-ANA at 6 7 8 10 11 15 | 174 a.u.
2'F-ANA at 1 3 5 8 9 12 13 15 | 92.9 a.u.
2'F-ANA at 5 10 11 13 | 43.2 a.u.
2'F-ANA at 1 4 5 6 7 9 10 12 13 | 74 a.u.
2'F-ANA at 4 5 7 14 15 | 49.3 a.u.
2'F-ANA at 2 3 4 5 6 7 10 11 12 14 | 61.2 a.u.
2'F-ANA at 1 2 7 10 11 12 13 14 | 186 a.u.
2'F-ANA at 5 6 7 9 11 13 15 | 54.5 a.u.
2'F-ANA at 2 3 6 7 9 12 13 14 15 | 325 a.u.
2'F-ANA at 3 4 5 7 8 11 12 13 15 | 109 a.u.
2'F-ANA at 1 2 3 4 5 9 12 15 | 111 a.u.
2'F-ANA at 1 2 6 8 9 13 15 | 114 a.u.
2'F-ANA at 2 3 6 9 10 11 12 | 369 a.u.

Repeated from above (study 4):
Oligonucleotide | E-score
ACATGGCT | -0.112
ATGGTTGC | -0.0239
GGTGGGTA | -0.05
GCATATTA | 0.0506
CTTCTTTA | 0.0513
CCTAAGGA | -0.157
CGCGTGGA | 0.253
AACATGTA | -0.106
CGTCACAA | 0.0452
AGGAGGCA | -0.103
ATGTTATA | 0.00219
GAGTTTCA | -0.156
ACATTAGT | -0.117
ATAATCGA | -0.134
GGCCGTAC | 0.382
CCAGGGAC | -0.14
AATACGTG | -0.112
CCGGGCTC | 0.202
